Measurements gathered from unrelated publications.
Each numbered part is a random draw from the data of one study; scales do not carry over between parts. Positions count from the first letter of the parent shown.

Sample 1
Target: Interferon regulatory factor 7, full length, phosphomimetic (IRF7, Homo sapiens, UniProt Q92985, residues 1-503, S471D/S472D/S475D/S476D/S477D/S483D/S484D/S487D)
Method: protein-binding microarray
Form: double-stranded DNA, one strand shown
Medium: in vitro
Tested at: 2200 nM top
Setting: 60-bp whole probe
With: salmon DNA 0.4 mg/ml
Relative to: random background probes
Reading: higher = stronger binding
Constant ends, left off below: GCCTAGCAC … GTCTTGATTCGCTTGACGCTGCTG
Residues (chain): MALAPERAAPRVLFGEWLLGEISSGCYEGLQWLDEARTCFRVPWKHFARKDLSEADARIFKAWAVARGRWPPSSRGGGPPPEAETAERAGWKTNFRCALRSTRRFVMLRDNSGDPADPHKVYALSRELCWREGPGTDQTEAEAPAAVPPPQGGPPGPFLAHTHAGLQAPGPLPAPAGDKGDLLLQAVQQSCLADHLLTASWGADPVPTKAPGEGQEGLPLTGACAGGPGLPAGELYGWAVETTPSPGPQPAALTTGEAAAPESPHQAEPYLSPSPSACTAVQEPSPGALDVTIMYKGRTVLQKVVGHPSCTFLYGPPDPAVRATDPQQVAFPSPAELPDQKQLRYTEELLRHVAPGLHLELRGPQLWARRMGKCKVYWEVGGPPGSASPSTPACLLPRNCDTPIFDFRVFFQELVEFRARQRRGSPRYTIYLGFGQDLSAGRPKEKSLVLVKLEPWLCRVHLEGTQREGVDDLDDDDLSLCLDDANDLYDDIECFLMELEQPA
Strand	fitted relative affinity [z-score]
GACGGATCCGGTTTCGGGACGTGCTAG	3.92
AGATCCATGCTCTGTCGCAGGGTGCTA	0.195
GACGGTTTCGGTCTCGGGCCGTGCTAG	6.42
TTAGATTTCAGACTGGATCAGTGCTAG	-0.14
GACGTTTTCCTTATCCTGACGTGCTAG	3.43
TTAGGACTGGGGTTGCGGTTAGTGCTA	-0.574
TCATTTTCATTTTATGACACTGTGCTA	6.68
TTAGGACTGCTTATGCTTTAGTGCTAG	0.0384
TTAGAACTGGGGACTGGATTGGTGCTA	-0.459

Sample 2
Target: RNA binding protein fox-1 homolog 2, RRM domain, GST-SBP tag (RBFOX2, Homo sapiens, UniProt O43251-10, residues 100-194)
Method: RNA Bind-n-Seq
Form: RNA
Medium: in vitro
Tested at: 365 nM
Setting: natural RNA segment, single round, ends assumed
Relative to: no-protein control
Reading: higher = stronger binding
Target sequence (chain): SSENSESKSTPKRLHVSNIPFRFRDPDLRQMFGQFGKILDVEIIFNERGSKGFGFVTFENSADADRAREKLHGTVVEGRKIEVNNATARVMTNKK
Strand	RBNS enrichment (R)
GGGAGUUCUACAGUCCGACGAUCCUCUUCAGCUCCCAGAAACUUACGCUUCCUCAUUUCUCAUAGCAUUUUAACUAGUGAACAUAAGGACAAUUUGCCUCAAUAGAAGACCAACAACCCCAUCAUGGAAUAUCUGGAAUUCUCGGGUGCCAA	0.368
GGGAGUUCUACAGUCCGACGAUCACUACUUUGCACACUUCCUCCAUGCUCUCACUUUGAAGGAAGCCUGGAUGAGGCUAGUGACUCUGUGGGUGUCCUGAACAGUGAAGUUCACUGUCUCCAUGUGAUUGUUAUGGAAUUCUCGGGUGCCAA	0.321
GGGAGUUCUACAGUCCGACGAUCGGGGCGUCGCCCCUGCUGGCCGCCGCGUCCCCCGAGAUUGACCCACAAUAAAGCACAGGCCUUACCGCGGCGUCACCCUCUCCCACUCCUUUGUUCUGGGUCCUUUCGGGUGGAAUUCUCGGGUGCCAA	0.428
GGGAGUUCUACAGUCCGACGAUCAGAGGAGUACCAUGAAAGCACUGAGGAAACAUUUCUUCAUCGUGUUACACUGACAACCCACAUCUUGGCUUGUGAUGGAUCAAAUCUUUUAUGAAGCCUUCAGGGGGACUUGGAAUUCUCGGGUGCCAA	0.256
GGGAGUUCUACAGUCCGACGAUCUGGCUCCUUAAGAAGCAAAAGUAGGUUAAAUUUUAUACUUCACUGACUAGGGUCUUCUCUCUCCCCUGUUCUGAAUGGAGUAAAAGUCUGAUGCCAAGACAAAUAUUGGGUGGAAUUCUCGGGUGCCAA	0.758
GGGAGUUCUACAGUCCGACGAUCUGAGUCUAGUUUUCUCUCAAAAUGAGAACAUUAGGCUAAAUGAUUUCCGAGUUUCCAGCUAGUCCUAGAGUUCUAUAUUUCUACAUAGUUGAAUUAUUUUAUCAUGCUGUUGGAAUUCUCGGGUGCCAA	0.316
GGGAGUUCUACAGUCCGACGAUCUAAGCCAGAGUCUUGUCUAUCAGAUUCCCACAACCACUCCUGAUUCUAAAUUUAGUGAUAUGGUAAUGAAAUUGGUAUUUAUUUUAAAUAUUAGUUAUUCUAAGGAGAAAUGGAAUUCUCGGGUGCCAA	0.368

Sample 3
Target: CCNB2, cyclin fold, Cln2 fusion (human)
Method: yeast growth competition, sequencing
Medium: yeast
Setting: weak parent motif
Relative to: not given
Reading: higher = stronger binding
Starting sequence: CDC6 docking peptide (human); TLKGRRLVFDNQL; partner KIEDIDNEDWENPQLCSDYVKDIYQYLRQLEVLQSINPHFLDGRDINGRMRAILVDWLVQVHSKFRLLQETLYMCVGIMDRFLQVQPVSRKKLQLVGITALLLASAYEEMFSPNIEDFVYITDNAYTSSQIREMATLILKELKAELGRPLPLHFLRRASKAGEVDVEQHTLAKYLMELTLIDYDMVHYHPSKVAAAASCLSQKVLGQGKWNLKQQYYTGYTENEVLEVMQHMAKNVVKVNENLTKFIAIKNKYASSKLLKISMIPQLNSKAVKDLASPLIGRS
Change	normalised enrichment score
K3C	-0.00283
V8T	0.28
V8R	0.452
F9C	0.0427
L2F	-0.285
L13N	0.104

Other studies, line by line
Molecule	target	assay	system	setting	how to read	quantity	value
PhoQ, residues 284 288 289 292 302 303 SSTMSV	PhoP, residues 12 14 15 18 19 NIMAP (Escherichia coli, UniProt P23836)	Sort-seq, refers to: YFP reporter	E. coli	PhoQ-PhoP variant library, with: 10 µM Mg2+	relative to: high Mg2+ state, higher = stronger signaling	fold induction	0.714
